# Assay results pooled from the literature.
# Protocols differ between the studies behind these lines. Several values in a cell are separate wells, animals, samples, runs or records.
# Cell line: BT-549
SMILES,assay,conditions,scale,quantity,result
C#C[C@@]1(O)[C@@H](CO)O[C@@H](n2cc(Br)c3c(N)ncnc32)[C@@H]1O,SRB,NCI-60 screen,,TGI,819 nM and 536 nM
CCCN1CCN(c2ccc3[nH]c(-c4ccc5[nH]c(-c6ccc(C(F)(F)F)cc6)nc5c4)nc3c2)CC1,SRB,"10 µM, 48 h",,growth percent,73.5%
O=C1NCCc2[nH]c(-c3ccncc3)cc21,MTS,NCI60 panel,,IC50,705 nM
Cn1cncc1C1=CN(c2ncnc3[nH]cnc23)CCS1,,,,GI50,9100 nM
C#C[C@@]1(O)[C@@H](CO)O[C@@H](n2cc(F)c3c(N)ncnc32)[C@@H]1O,SRB,NCI-60 screen,,TGI,4180 nM
CCOc1ccc(-c2nc3cc(-c4nc5cc(N6CCN(C)CC6)ccc5[nH]4)ccc3[nH]2)cc1OCC,SRB,"10 µM, 48 h",,growth percent,-29.5%
CCN(CC)c1ccc(C=NNC(=O)CSc2nc3ccccc3c(=O)n2Cc2ccc(S(N)(=O)=O)cc2)c(O)c1,NCI five-dose screen,,,TGI,> 100000 nM
Cc1cc(=O)[nH]n1-c1nc(-c2ccc(Cl)cc2)c2c(NC(=O)c3ccccc3)nnc-2[nH]1,SRB,"10 µM, NCI60 single-dose screen",baseline: untreated,cell growth,99.5%
C#C[C@@]1(O)[C@@H](CO)O[C@@H](n2cc(Cl)c3c(N)ncnc32)[C@@H]1O,SRB,NCI-60 screen,,TGI,640 nM and 685 nM
CN1CCN(c2ccc3[nH]c(-c4ccc5[nH]c(-c6ccc(C(F)(F)F)cc6)nc5c4)nc3c2)CC1,SRB,"10 µM, 48 h",,growth percent,84.6%
CCn1cc(-c2cc(Cn3ccoc3=N)cc3c2CCN([C@@H](C)c2cc(OC)ccn2)C3=O)c(C(F)(F)F)n1,"cell growth, inhibitor",120 h,,EC50,1230 nM
O=C(/C=C/C=C/C=C/C1CCCCC1)NC1=C[C@@](O)(/C=C/C=C/C=C/C(=O)NC2=C(O)CCC2=O)[C@@H]2O[C@@H]2C1=O,"cell growth, CellTiter-Glo",78 h,,GI50,5740 nM
CCCCN1CCN(c2ccc3[nH]c(-c4ccc5[nH]c(-c6ccc(OCC)c(OCC)c6)nc5c4)nc3c2)CC1,SRB,"10 µM, 48 h",,growth percent,-23%
Cc1cc(C)n(C(=S)[S][Au][PH](CCCCCC[PH]([Au][S]C(=S)n2nc(C)cc2C)(c2ccccc2)c2ccccc2)(c2ccccc2)c2ccccc2)n1,"cell growth, NCI-60 screen",breast cancer,,log10 TGI,-5.07
